Published values collected from several papers.
Every numbered part comes from another study and shows a few of its results, in no order.

Series 1 — method: aptamer microarray, sandwich; form: DNA with 2'F-ANA; medium: in vitro; concentration: 200 nM; with: Cy3 exosite-II aptamer, 400 nM; direction: higher = stronger binding; oligonucleotide: GGTTGGTGTGGTTGG
Target: Prothrombin, mature alpha-thrombin (F2, Homo sapiens, UniProt P00734)
Notes: whole 15-mer aptamer, many near background
| Modification | mean fluorescence intensity [a.u.] |
| --- | --- |
| 2'F-ANA at 2 3 5 6 9 10 11 12 13 14 15 | 50.8 |
| 2'F-ANA at 1 6 8 14 | 60.7 |
| 2'F-ANA at 2 4 8 10 11 12 13 | 92.2 |
| 2'F-ANA at 1 2 3 4 6 7 8 11 12 14 | 78.3 |
| 2'F-ANA at 2 5 7 8 10 11 12 | 47.8 |
| 2'F-ANA at 5 6 11 12 13 | 99.9 |
| 2'F-ANA at 3 5 7 9 10 11 12 13 14 | 106 |
| 2'F-ANA at 3 5 6 7 8 9 10 14 | 47.7 |
| 2'F-ANA at 1 7 9 10 11 12 14 15 | 49.2 |
| 2'F-ANA at 1 3 5 7 8 9 11 12 13 14 | 45.8 |
| 2'F-ANA at 4 10 | 102 |
| 2'F-ANA at 1 2 3 6 7 9 11 13 14 | 95 |
| 2'F-ANA at 2 3 5 8 11 12 | 196 |
| 2'F-ANA at 1 3 7 8 9 11 12 14 | 119 |
| 2'F-ANA at 2 4 5 9 10 12 | 51.6 |
| 2'F-ANA at 4 6 7 8 10 11 12 13 14 15 | 58.3 |
| 2'F-ANA at 1 2 3 5 6 9 10 11 13 14 15 | 48.4 |
| 2'F-ANA at 1 2 3 4 5 6 7 9 10 13 | 47.7 |
| 2'F-ANA at 1 2 3 4 5 8 9 10 14 | 48 |
| 2'F-ANA at 3 5 7 8 11 | 136 |

Series 2 — method: EMSA with sequencing; form: double-stranded DNA, one strand shown; medium: in vitro; concentration: 10 and 20 nM; reference: negative control set to 0; direction: higher = stronger binding
Target: Hepatocyte nuclear factor 3-alpha (Foxa1, Mus musculus, UniProt P35582, residues 1-468, full length assumed)
Notes: whole designed probe, mean of two concentrations, ends assumed
Shared flanks, not repeated: GTGAGCGGTGCCCATTGATGGGGAAC … TTTCACTGGGATCGTGGGGAC
Target sequence (chain): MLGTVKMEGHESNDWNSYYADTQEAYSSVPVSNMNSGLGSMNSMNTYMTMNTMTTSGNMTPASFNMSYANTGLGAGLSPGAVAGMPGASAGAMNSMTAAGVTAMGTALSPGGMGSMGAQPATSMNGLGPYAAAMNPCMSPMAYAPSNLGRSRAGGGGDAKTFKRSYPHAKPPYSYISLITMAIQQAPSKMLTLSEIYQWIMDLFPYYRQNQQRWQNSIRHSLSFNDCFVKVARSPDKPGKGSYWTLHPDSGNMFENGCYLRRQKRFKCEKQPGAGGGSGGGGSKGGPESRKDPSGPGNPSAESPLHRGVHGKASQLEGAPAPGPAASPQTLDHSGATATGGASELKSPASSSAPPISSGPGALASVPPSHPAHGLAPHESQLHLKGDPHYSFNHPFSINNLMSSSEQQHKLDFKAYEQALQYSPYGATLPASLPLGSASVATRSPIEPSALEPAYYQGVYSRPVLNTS
| Oligonucleotide | normalised bound fraction [ratio] |
| --- | --- |
| ATCTTCCCCCTCTTCCTTGCCCCACCAGCTCACCTTCCCGGGTTATTTGCAGATAGGAAAATAAATAAAGCCGGCATTCGTTAACCCTCTTCTGGCGCAAACTGCTGTTTGCTCTGGATGAATCATGGTCCTTGCCCGCGGGGCGGCTAATGCAGAGCAAAGCACCGTGTCAGGGCCATGATCCGGGGTGGCC | 0.356 |
| GTTTTTGCACTGACGTGCACAGGCAAGCCCATATCTCTGCCTCTAAGCACATACTCTCTTTCCAAAGGTTGTGTAATGAGTGAGTCAGAGCTGTGTACACATAAGAAAGGAAAGAGGGCAAGGCAGGGCAGGAATTCAGCTCAATGAAGCCGCGGAGCCTCCATTTAAAAATGATACTAATGAGCCCACAGAA | 0.176 |
| CCCTTAACCTACTCCTAAATCCTCTTTCCTTTTCCTTTCTAAATATCCTTTCGTGCTGTGAAGGGAAGAATGGAGGTGGGTCTTATTGCTACTTATTGACACATATCAGGTTTAGCTACACAATATGTTTGTAATTAAAAGCTTCAGCAAGAATATTCTGCTCCTTTCCTTTGAGGATTTGCAGAGCACAGGC | 0.0719 |
| TTAAGTTGGCAAAATTTAGGAAGCCAGATGATGCCAGATTTTGGCAGGACTTTGAGGATATTGGAACCATTACAGGTTCCTATGACTCAGCAAAGATTGCATAGGTTATGAGAGAACATGTAAGGAATTGTTTATTAAGGCATTATTTGAAGTGGCAATGAGTTGGAGGACATTCGCAAATCCATCACTGAGA | 0.101 |
| AATATTGCTTCCATACGTTCTGTTGCTTAAGTTCACCTCTGCCTCTAGGGCTCACACTTGTATTCCTTTTGCCTGGACTGCTTTTTCCCCAAATATTTACACAGCTGGCTACTTGTTCTTGTCACTCAAACACACTTGAGTATCACTCTCAGAGATACTTTGTTGAGTTCCTCATCTAATACATCCACTACAT | 0.311 |

Series 3 — method: RNA Bind-n-Seq; form: RNA; medium: in vitro; concentration: not given; reference: input RNA pool; direction: higher = stronger binding
Target: RING finger protein unkempt homolog, zinc fingers 1-6, GST-SBP tag (UNK, Homo sapiens, UniProt Q9C0B0, residues 30-357)
Notes: RNA with constant flanks, human and mouse sites, ends assumed
Shared flanks, not repeated: GGGAGUUCUACAGUCCGACGAUC … CAACAGAGGAUUGAGCAUCA
Residues (chain): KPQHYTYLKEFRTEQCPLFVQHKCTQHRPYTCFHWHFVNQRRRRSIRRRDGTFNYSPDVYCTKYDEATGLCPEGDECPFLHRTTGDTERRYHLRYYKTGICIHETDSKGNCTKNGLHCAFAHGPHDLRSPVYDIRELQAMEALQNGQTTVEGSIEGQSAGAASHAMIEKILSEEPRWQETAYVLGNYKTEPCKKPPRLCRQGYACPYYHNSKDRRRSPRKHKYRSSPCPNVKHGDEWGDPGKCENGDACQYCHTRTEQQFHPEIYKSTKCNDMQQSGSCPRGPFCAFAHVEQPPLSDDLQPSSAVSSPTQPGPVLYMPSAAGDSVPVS
| Oligonucleotide | bound/input enrichment [ratio] |
| --- | --- |
| CCGUUUCUAGUAUAUUCCUGUAAAUGUCAGUUACUGAAAAUGAGUCCAAUGUAAGUAGUUUAGCUUGUUUAUUGCAAUGCUGGCCUCAACACAACAGAAUAAAAAUGGUAGAAAGUACUC | 0.712 |
| AACGAUGUUGAAGUCAAAUGGAUUGAAUACCAGAAUAUGGUGAACUACCUCAUCCAGUGGAUUAGACACCACGUGGUCACUAUGUCCGAGAGAACAUUUCCUAACAACCCUCUAGAACUA | 0.216 |
| CAUGGUUGGUGCUGCAUGGGUUUGAUUGUCUUUGUUUGGUUAUACAAUAUUGUUUUAAUUCCCAAAAUUGUCCUCUUUCCUCACUAUGAAGAAGGACAUAUUCCAGGCAUAUUAAUAAUA | 0.39 |
| AAGUGAUAGUUGAUUUGAAUCUUUAAUACGUAUGGUUCGUUAUUUCCCAGCACAGCCUGACAGUUCUGUGUGAAAAGAACGAUCCCUCCCCCCGUGACCUAAAAUACUAUGGAAAGCUCA | 1.71 |
| AGCGUUCAGGAAUUCAUGACCUUCACGAGUCAACUGAUUGUGGAGCGCUCAUCGAAAGGCACUAGAGCUUCUGUCAAAGAACAAGACUAUCUGUGCCACGUCUACGUCCGGAAUGAUAGU | 0.043 |
| GGAGCCACGGGUUCUGUCCAGACUAUCUAUAUGUGUGUGGGAUGUGUGUGUAGAUGGAUGGAUAGAUAGAUAGGCAGGCUACAUAUAGGUUGGCUAUAUAUAGGUUAGCUAUAUACAGGU | 0.877 |
| CACGCAUCCAUCCAGAUGAACGUGGCCGAGGUUGACAAGGUCACAGGCAGGUUUAAUGGCCAGUUUAAAACUUAUGCUAUCUGCGGGGCCAUUCGUAGGAUGGGUGAGUCAGAUGAUUCC | 0.0879 |
| AUACAUGAUCUAGCAAGCCAAGCUGCCACCAUUUGCAGUCCAGAUUUUUUACUAGAUGCUUUAGAACUAUGUAAACAUACUUUAAUGGCUGUAGAGCUUUCCAGACAAUGCCAAAUGGAU | 1.51 |

Series 4 — method: RNA Bind-n-Seq; form: RNA; medium: in vitro; concentration: 365 nM; reference: no-protein control; direction: higher = stronger binding
Target: RNA binding protein fox-1 homolog 2, RRM domain, GST-SBP tag (RBFOX2, Homo sapiens, UniProt O43251-10, residues 100-194)
Notes: natural RNA segment, single round, ends assumed
Shared flanks, not repeated: GGGAGUUCUACAGUCCGACGAUC … UGGAAUUCUCGGGUGCCAA
| Oligonucleotide | RBNS enrichment (R) |
| --- | --- |
| AUUCUUAGUAUGCGUUGCAUCGGGGAUUUUAGACCAGGCUGCCUCUGAAAUGGUUAUUUGCAGCCCAAUUCCUCAGUGUCAAUGAUCCUUUCUGAGGCUUGGCUUUAGAA | 4.02 |
| UGGUUCUGUAAAGCUCUUGUACCGCUGGAGAAACGGCAUCACUAUAAGCUAUGAGUUGAACUGUUUCUGUCAAGUAUGUCUUGUGUCCACACAUGGUUUGGAUGCUUCUA | 1.08 |
| CAUUAUUAAUAUUUUUUUUAAACUAAUUUGGGGAGGGAGGGUUAGCUUAAGUGCUAAGUCAGGUGUGGAUCCACAGGAGGGUUCCAACAGAGUGUUUCCUCCACUGUAUA | 0.948 |
| ACACAGAAUGGAACUGUGAGUGGAGAGAUGAAUAAGUUGCCCCCCCAGCCCCCCUUCCCAUUUGUUUCUCCUUCUCUAAUCCCAGGGACUAUGGUAGAGACUUGCUGCUC | 0.579 |
| GAAGUCCCUACCAUCCUUGUUUAGUCUAUAUUAAGAAAAUCUGUGUCUUUUUAAUAUUCUUGUGAUGUUUUCAGAGCCGCUGUAGGUCUCUUCUUGCAUGUCCACAGUAA | 16.6 |
| CCUGGGACUCCUUCCUCAAGAUCUGGAACUAUGGCCCCACCCCCACUGGGCCCAGGCCAGGAGGGGCCCUGCCCAUGCCCACACUACAGGCCAGGGCUGCGGGGCUGGCG | 0.466 |
| UCCCAUGCAAGUUCUUUUGGGAACACCCAGAAAACUUCUCUGAGAAGAAAAAUGGAAGGUAAGUUGAGUUGCUCCUUUCCCAGUUCCUAGGAAUAGGCAAGAAGCCAGUC | 1.04 |
| AGAGUUUUUGAAAUAAUUUAUGCAAGUAUUUGGUUUCCAUGUUUACAAUUUAUACAGCUUUCCUAGCAUUUUAAAUGGAAAUGUCAAUAAAUGCUAUGAAUUGGUGUCAA | 1.61 |

For quick reference, copied from above (series 3):
| Oligonucleotide | bound/input enrichment [ratio] |
| --- | --- |
| CACGCAUCCAUCCAGAUGAACGUGGCCGAGGUUGACAAGGUCACAGGCAGGUUUAAUGGCCAGUUUAAAACUUAUGCUAUCUGCGGGGCCAUUCGUAGGAUGGGUGAGUCAGAUGAUUCC | 0.0879 |
| AACGAUGUUGAAGUCAAAUGGAUUGAAUACCAGAAUAUGGUGAACUACCUCAUCCAGUGGAUUAGACACCACGUGGUCACUAUGUCCGAGAGAACAUUUCCUAACAACCCUCUAGAACUA | 0.216 |
| CCGUUUCUAGUAUAUUCCUGUAAAUGUCAGUUACUGAAAAUGAGUCCAAUGUAAGUAGUUUAGCUUGUUUAUUGCAAUGCUGGCCUCAACACAACAGAAUAAAAAUGGUAGAAAGUACUC | 0.712 |
| GGAGCCACGGGUUCUGUCCAGACUAUCUAUAUGUGUGUGGGAUGUGUGUGUAGAUGGAUGGAUAGAUAGAUAGGCAGGCUACAUAUAGGUUGGCUAUAUAUAGGUUAGCUAUAUACAGGU | 0.877 |
| AGCGUUCAGGAAUUCAUGACCUUCACGAGUCAACUGAUUGUGGAGCGCUCAUCGAAAGGCACUAGAGCUUCUGUCAAAGAACAAGACUAUCUGUGCCACGUCUACGUCCGGAAUGAUAGU | 0.043 |
| AAGUGAUAGUUGAUUUGAAUCUUUAAUACGUAUGGUUCGUUAUUUCCCAGCACAGCCUGACAGUUCUGUGUGAAAAGAACGAUCCCUCCCCCCGUGACCUAAAAUACUAUGGAAAGCUCA | 1.71 |
